Assay results pooled from the literature.
Several values in a cell are separate wells, animals, samples, runs or records. ± gives the spread as reported.

`COc1ccc(CNc2ccc3c(c2)S(=O)(=O)C=C3)cc1` — result for “Gr-1+ CD11b+ cells”: 0.58% (flow cytometry; male C57BL/6 mice, spleen; i.p., 10 mg/kg, 8 days; reference: CD45+ cells).
For `Cn1nc(NS(C)(=O)=O)c2c(Cl)ccc(-n3c([C@H](Cc4cc(F)cc(F)c4)NC(=O)Cn4nc(C(F)F)c5c4C(F)(F)[C@@H]4C[C@H]54)nc4nc(OCCC(F)(F)F)ccc4c3=O)c21`, the half-life was 66.3 h (human, plasma; oral, 625 mg single dose, powder in bottle, geometric mean).
For `CC(C)C[C@H](NC(=O)[C@@H](N)CO)C(=O)N[C@@H](Cc1c[nH]c2ccccc12)C(=O)N[C@@H](CCC(=O)O)C(=O)N[C@@H](CC(N)=O)C(=O)N[C@@H](Cc1ccccc1)C(=O)N[C@@H](CCCCN)C(=O)N[C@@H](CC(N)=O)C(=O)N[C@@H](C)C(=O)NCC(=O)N[C@@H](CCCCN)C(=O)N[C@@H](CCCCN)C(N)=O`, the HC50 was greater than 128 µM (horse erythrocytes; 2 h, 37 °C; reference: Triton X-100).
The peptide remaining of `CC(C)[C@@H]1NC(=O)CNC(=O)[C@H](CC(N)=O)NC(=O)[C@H](CCCNC(=N)N)NC(=O)[C@H](Cc2ccc(O)cc2)NC(=O)[C@H](C(C)C)NC(=O)[C@@H](NC(=O)[C@@H](NC(=O)[C@H](CC(N)=O)NC(=O)[C@H](Cc2c[nH]c3ccccc23)NC(=O)[C@H](C)NC(=O)[C@H](Cc2ccccc2)NC(=O)CNC(=O)[C@H](CCCCN)NC(=O)[C@H](Cc2ccccc2)NC(=O)[C@H](Cc2ccccc2)NC(=O)[C@H](CCCCN)NC(=O)OCC2c3ccccc3-c3ccccc32)C(C)C)CSSC[C@@H](C(=O)N[C@@H](Cc2c[nH]cn2)C(=O)N[C@@H](CCCNC(=N)N)C(=O)N[C@@H](CCCNC(=N)N)C(=O)N[C@@H](C)C(=O)N[C@@H](CC(N)=O)C(N)=O)NC(=O)[C@H](C(C)C)NC(=O)[C@H](CCCNC(=N)N)NC1=O` is reported as 44.7% and 41.8% and 47.8% (HPLC; mouse liver homogenate 50 mg/mL; 2.00 h).
Under “elution acetonitrile content”, `CC[C@H](C)[C@H](N)C(=O)N[C@@H](CCCNC(=N)N)C(=O)N[C@H](C(=O)N[C@@H](Cc1c[nH]c2ccccc12)C(=O)N[C@@H](Cc1ccccc1)C(=O)N[C@H](C(=O)N[C@@H](CCCCN)C(=O)N[C@H](C(=O)N[C@@H](CCCNC(=N)N)C(=O)N[C@@H](CCCCN)C(=O)N[C@@H](CCSC)C(=O)N[C@@H](CCCCN)C(=O)N[C@@H](C)C(=O)N[C@H](C(=O)N[C@@H](Cc1ccc(O)cc1)C(=O)N[C@@H](Cc1c[nH]cn1)C(=O)N[C@H](C(N)=O)[C@@H](C)O)[C@@H](C)CC)C(C)C)[C@@H](C)CC)C(C)C` is recorded as 43.5% (reversed-phase UPLC; C18 column, TFA).
For `CSCC[C@H](N)C(=O)N[C@@H](C)C(=O)N[C@@H](CCCNC(=N)N)C(=O)N[C@@H](CCCNC(=N)N)C(=O)N[C@@H](CC(=O)O)C(=O)N[C@@H](CCCCN)C(=O)N[C@H](C(=O)N[C@@H](CC(=O)O)C(=O)N[C@@H](Cc1ccccc1)C(=O)N[C@@H](C)C(=O)N[C@@H](CCCNC(=N)N)C(=O)N[C@@H](CCCNC(=N)N)C(=O)N[C@@H](CCCNC(=N)N)C(=O)N[C@@H](CCCNC(=N)N)C(=O)NCCCCCC(=O)NCCCCC(NC(=O)CCCCCNC(=O)[C@H](CCCNC(=N)N)NC(=O)[C@H](CCCNC(=N)N)NC(=O)[C@H](CCCNC(=N)N)NC(=O)[C@H](CCCNC(=N)N)NC(=O)[C@H](C)NC(=O)[C@H](Cc1ccccc1)NC(=O)[C@H](CC(=O)O)NC(=O)[C@@H](NC(=O)[C@H](CCCCN)NC(=O)[C@H](CC(=O)O)NC(=O)[C@H](CCCNC(=N)N)NC(=O)[C@H](CCCNC(=N)N)NC(=O)[C@H](C)NC(=O)[C@@H](N)CCSC)[C@@H](C)O)C(=O)NCCCCC(NC(=O)C(CCCCNC(=O)CCCCCNC(=O)[C@H](CCCNC(=N)N)NC(=O)[C@H](CCCNC(=N)N)NC(=O)[C@H](CCCNC(=N)N)NC(=O)[C@H](CCCNC(=N)N)NC(=O)[C@H](C)NC(=O)[C@H](Cc1ccccc1)NC(=O)[C@H](CC(=O)O)NC(=O)[C@@H](NC(=O)[C@H](CCCCN)NC(=O)[C@H](CC(=O)O)NC(=O)[C@H](CCCNC(=N)N)NC(=O)[C@H](CCCNC(=N)N)NC(=O)[C@H](C)NC(=O)[C@@H](N)CCSC)[C@@H](C)O)NC(=O)CCCCCNC(=O)[C@H](CCCNC(=N)N)NC(=O)[C@H](CCCNC(=N)N)NC(=O)[C@H](CCCNC(=N)N)NC(=O)[C@H](CCCNC(=N)N)NC(=O)[C@H](C)NC(=O)[C@H](Cc1ccccc1)NC(=O)[C@H](CC(=O)O)NC(=O)[C@@H](NC(=O)[C@H](CCCCN)NC(=O)[C@H](CC(=O)O)NC(=O)[C@H](CCCNC(=N)N)NC(=O)[C@H](CCCNC(=N)N)NC(=O)[C@H](C)NC(=O)[C@@H](N)CCSC)[C@@H](C)O)C(N)=O)[C@@H](C)O` (stereo partly drawn), the tissue distribution was 1.1% and 1.68% and 1.8% (C57BL/6 mouse female, lungs; dose not given, 6 h; reference: total).
The biliary excretion of `CC(C)=CCC/C(C)=C\CCn1cc(CC(C)(P(=O)(O)O)P(=O)(O)O)nn1` is reported as 0.88% (mouse CD-1; intravenous, 0.3 mg/kg, 8 h; reference: dose).
`O=C1NC2(CC2)COc2ncc(F)cc2[C@H]2COCCN2c2ccn3ncc1c3n2` — result for “alkaline phosphatase activity”: 83.8 ± 9.6 U/L (Sprague-Dawley rat, female, serum; oral, 5 mg/kg/day, 4 weeks daily, end of treatment).
Under “serum alkaline phosphatase”, `C=Cc1c(C)c2cc3nc(c(CC(=O)[O-])c4[n-]c(cc5nc(cc1[n-]2)C(C)=C5CC)c(C)c4C(=O)[O-])C(CCC(=O)[O-])C3C.[Cu+2].[Na+].[Na+].[Na+]` (stereo not drawn) is recorded as 183 ± 33.6 U/L (Wistar rat, male; oral, 1000 mg/kg daily, 28 days).
For `O=C(c1cc(Cc2n[nH]c(=O)c3ccccc23)ccc1F)N1CC(CNC2CC2)C1`, the AUC(0-inf) was 3030 ng·h/mL (female CD-1 mouse, plasma; intravenous, 20 mg/kg).
`CC[C@H](C)[C@H](NC(=O)[C@H](C)NC(=O)[C@H](C)NC(=O)[C@H](CCC(N)=O)NC(=O)CNC(=O)[C@H](CC(C)C)NC(=O)[C@H](Cc1c[nH]cn1)NC(=O)[C@H](CCCCN)NC(=O)[C@H](C)NC(=O)CNC(=O)[C@H](CCCCN)NC(=O)[C@H](CCCNC(=N)N)NC(=O)[C@H](CC(C)C)NC(=O)[C@H](Cc1c[nH]c2ccccc12)NC(=O)[C@H](CCCCN)NC(=O)[C@H](CCCCN)NC(=O)[C@H](Cc1c[nH]c2ccccc12)NC(=O)CN)C(=O)N[C@@H](CCCCN)C(N)=O`: “chronic toxic concentration” 25 µM (zebrafish embryos 28 hpf, E3 medium; 24 h).
For `CC[C@H](C)[C@H](NC(=O)[C@H](CCCCN)NC(=O)CNC(=O)[C@H](CC(C)C)NC(=O)[C@H](Cc1ccccc1)NC(=O)[C@H](CCCCN)NC(=O)[C@H](CO)NC(=O)[C@H](Cc1ccccc1)NC(=O)[C@H](Cc1c[nH]c2ccccc12)NC(=O)[C@H](CCC(N)=O)NC(=O)[C@@H](NC(=O)[C@H](Cc1ccccc1)NC(=O)CCCCCNC(=O)CN1CCN(CC(=O)O)CCN(CC(=O)O)CCN(CC(=O)O)CC1)C(C)C)C(=O)N[C@@H](CCC(=O)O)C(=O)N1CCC[C@H]1C(=O)N[C@@H](CC(=O)O)C(=O)N[C@H](C(=O)N[C@@H](CO)C(=O)N[C@@H](CCC(N)=O)C(=O)N[C@H](C(=O)N[C@@H](CCC(N)=O)C(=O)N[C@@H](CC(=O)O)C(=O)N1CCC[C@H]1C(=O)N[C@@H](CC(N)=O)C(=O)N[C@@H](CC(=O)O)C(=O)N[C@@H](CCC(N)=O)C(=O)N[C@@H](Cc1ccc(O)cc1)C(=O)N[C@@H](CCC(=O)O)C(=O)N1CCC[C@H]1C(=O)N[C@@H](Cc1ccccc1)C(=O)O)C(C)C)C(C)C` [copper-64 labelled], the tissue uptake was 1.18 ± 0.07 %ID/g (C57BL/6 mice, thymus; vehicle, intratracheal instillation).

Repeated from above:
The biliary excretion of `CC(C)=CCC/C(C)=C\CCn1cc(CC(C)(P(=O)(O)O)P(=O)(O)O)nn1` is reported as 0.88% (mouse CD-1; intravenous, 0.3 mg/kg, 8 h; reference: dose).
